# Assay results of several laboratories.
# Parts stem from different laboratories: compare values within a part only.

# Sample 1 — method: protein binding microarray; form: double-stranded DNA, one strand shown; sample: in vitro; tested at: not given; baseline: not given; direction: higher = stronger binding
# Target: Histone acetyltransferase KAT6A, winged helix 2, GST fusion (KAT6A, Homo sapiens, UniProt Q92794, residues 85-181)
# Setting: 8-mer, flanks averaged, mean of 2 arrays, mostly near background
# Construct (chain): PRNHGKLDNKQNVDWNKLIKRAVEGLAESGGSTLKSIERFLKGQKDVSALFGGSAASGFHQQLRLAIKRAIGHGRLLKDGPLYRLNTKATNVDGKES
Sequence,E-score
GCCCGGTA,0.0793
CAAGAGAA,-0.0152
CGTTCTCC,-0.0417
AGTGTCAC,0.0283
CTTTTCTA,-0.244
TATACCGA,-0.0234
ACCAGTTG,-0.0198
AAGGGCTG,0.0886
GCAGGAAA,0.0509
ATATACGC,-0.121
CCGATAAA,-0.00431
ACATTCGC,-0.0155
AGGTTTAA,-0.0738
CTGAAAAG,-0.107
CGCAGAGC,0.225
CCATTACA,-0.094
AGTAACAT,-0.145
GCGAAAGA,-0.0223

# Sample 2 — method: protein-binding microarray; form: double-stranded DNA, one strand shown; sample: in vitro; tested at: 250 nM; setting: 60-bp whole probe; together with: salmon DNA 0.4 mg/ml; baseline: random background probes; direction: higher = stronger binding; all sequences stand within: GCCTAGCAC … GTCTTGATTCGCTTGACGCTGCTG
# Target: Interferon regulatory factor 7, full length, phosphomimetic (IRF7, Homo sapiens, UniProt Q92985, residues 1-503, S101K/S471D/S472D/S475D/S476D/S477D/S483D/S484D/S487D)
# Target sequence (chain): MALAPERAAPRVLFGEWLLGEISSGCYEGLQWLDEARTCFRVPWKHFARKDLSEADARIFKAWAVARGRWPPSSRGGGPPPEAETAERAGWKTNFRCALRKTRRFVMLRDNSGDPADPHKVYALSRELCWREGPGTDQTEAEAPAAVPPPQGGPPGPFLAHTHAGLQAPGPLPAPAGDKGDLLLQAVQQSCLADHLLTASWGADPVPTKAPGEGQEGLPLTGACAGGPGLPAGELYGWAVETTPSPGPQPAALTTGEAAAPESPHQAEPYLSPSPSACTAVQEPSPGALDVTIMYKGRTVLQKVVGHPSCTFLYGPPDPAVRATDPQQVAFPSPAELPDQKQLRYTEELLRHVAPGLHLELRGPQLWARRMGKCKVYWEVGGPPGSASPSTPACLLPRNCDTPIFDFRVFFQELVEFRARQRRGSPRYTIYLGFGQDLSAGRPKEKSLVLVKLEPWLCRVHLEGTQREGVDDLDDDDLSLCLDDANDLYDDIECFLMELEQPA
Sequence,log fluorescence [z-score]
TTTTTTTTTGGAATGTCTTCGTGCTAG,0.441
CTAGGTCTCCTTATCCTTTAGTGCTAG,0.71
TCATAATTCCTGCCTGAGACTGTGCTA,0.229
TCATCTGTCATTTTCTCACTGTGCTAG,0.668
GACGGTTTCGGGTTTTGGGACGTGCTA,9.96
TGAGTAATTACATAATTACGGTGCTAG,-0.38
TAAGGACTGGGGTTTCGGTTAGTGCTA,5.99
TTAGGACTGCTTTTCCTTTCGTGCTAG,1.27
GAAACACTAATTTTTACTTTGTGCTAG,0.636
GACGGACTGGGGTTTCGGTACGTGCTA,1.77
GACGGACTGGGTCGCGGGACGTGCTAG,-0.235
GACCGACTGGGTCTCGGGACGTGCTAG,0.144
ATGCATGTGCTGTCTCAGAGTGTGCTA,-0.284
TCAGGAGTCAACTCTCTAACTGTGCTA,-1.19
GACGCTATCCTTATCCTGACGTGCTAG,0.212
TTAGAACTGGGGACTGGATCAGTGCTA,-0.545
GGTGTTTTACAGGTTCTCTTTGTGCTA,0.0277
GACGGTCTCGGTATCGGGGCGTGCTAG,1.66
GACGGTATCCTTATCCTTACGTGCTAG,0.15

# Sample 3 — method: RNA Bind-n-Seq; form: RNA; sample: in vitro; tested at: 1 µM; setting: whole 134-nt RNA, ends assumed; together with: 150 mM KCl; baseline: input library; direction: higher = stronger binding
# Target: Ras GTPase-activating protein-binding protein 1, RRM domain (G3BP1, Homo sapiens, UniProt Q13283)
# Sequence of UniProt Q13283 (whole entry, looked up): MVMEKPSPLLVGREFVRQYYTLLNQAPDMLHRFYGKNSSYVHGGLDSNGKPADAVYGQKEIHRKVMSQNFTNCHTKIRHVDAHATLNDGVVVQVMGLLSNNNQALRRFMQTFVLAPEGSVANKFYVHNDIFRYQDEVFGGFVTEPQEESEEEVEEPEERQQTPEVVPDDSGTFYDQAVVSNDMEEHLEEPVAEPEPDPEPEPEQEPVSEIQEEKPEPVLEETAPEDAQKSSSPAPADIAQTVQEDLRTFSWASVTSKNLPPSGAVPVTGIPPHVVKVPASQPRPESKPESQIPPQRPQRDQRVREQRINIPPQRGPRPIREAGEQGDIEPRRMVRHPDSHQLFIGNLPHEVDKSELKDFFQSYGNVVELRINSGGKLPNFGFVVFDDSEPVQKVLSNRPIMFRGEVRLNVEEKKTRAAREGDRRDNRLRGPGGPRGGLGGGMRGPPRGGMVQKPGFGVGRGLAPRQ
# All sequences stand within: GGGAGUUCUACAGUCCGACGAUC … UGGAAUUCUCGGGUGUCAAGG
Sequence,log2 enrichment
CUCAAGUCCUGUGCUACACAUCGUAUGUACCGAAUCGGAAAAAGGUUUGGUGGAAAGUAUUAUGUUACGCCGUUCGGAUCUGCACUUCCA,-0.269
AAGUCCUGUGCUACACAUCGUAUGUACCGAAUCGGGGUUUGGGGUUUGGGGAGGGGAAAGUAUUAUGUUACGCCGUUCGGAUCUGCACUU,1.39
UCCUCAAGUCCUGUGCUACACAUCGUAUGUACCGAAUCGGGCGGGGCGGCGGAAAGUAUUAUGUUACGCCGUUCGGAUCUGCACUUCCAG,-0.147
AAGUCCUGUGCUACACAUCGUAUGUACCGAAUCGGGAAAAAGGGUUUGGGUUUGGGAAAGUAUUAUGUUACGCCGUUCGGAUCUGCACUU,0.519
UGGGAGGUGGAUUUUGUUUAUUUUUUUAGCUCAUUUCCAGGGGUGGGAAUUUUUCUUUAAUAUGUGUCAUGAAUAAAGUUGUUUUUGAAA,1.54
CAAGUCCUGUGCUACACAUCGUAUGUACCGAAUCGGAAAGGGAAAGGGAAAGGGGAAAGUAUUAUGUUACGCCGUUCGGAUCUGCACUUC,-0.0954
UUGUCUUCUGAGAUGUUGGGCCCCUCUUGGGAUGGAGAUGAAGCAGAAUCCACUGGUGAAAUCAUUAGACUUGGAGACACAGCACACACC,-0.0626
GAAAUUAUGGAAGUGGAAAUUACAAUGAUUUUGGAAAUUAUAACCAGCAACCUUCUAACUACGGUCCAAUGAAGAGUGGAAACUUUGGUG,-0.155
AAGUCCUGUGCUACACAUCGUAUGUACCGAAUCGGUUUUUGGAAAAAGGAAAAAGGAAAGUAUUAUGUUACGCCGUUCGGAUCUGCACUU,-0.153

# Sample 4 — method: RNA Bind-n-Seq; form: RNA; sample: in vitro; tested at: 100 nM; baseline: input RNA pool; direction: higher = stronger binding
# Target: RING finger protein unkempt homolog, zinc fingers 1-6, SBP tag (UNK, Homo sapiens, UniProt Q9C0B0, residues 30-357)
# Sequence of UniProt Q9C0B0 (30-357, looked up): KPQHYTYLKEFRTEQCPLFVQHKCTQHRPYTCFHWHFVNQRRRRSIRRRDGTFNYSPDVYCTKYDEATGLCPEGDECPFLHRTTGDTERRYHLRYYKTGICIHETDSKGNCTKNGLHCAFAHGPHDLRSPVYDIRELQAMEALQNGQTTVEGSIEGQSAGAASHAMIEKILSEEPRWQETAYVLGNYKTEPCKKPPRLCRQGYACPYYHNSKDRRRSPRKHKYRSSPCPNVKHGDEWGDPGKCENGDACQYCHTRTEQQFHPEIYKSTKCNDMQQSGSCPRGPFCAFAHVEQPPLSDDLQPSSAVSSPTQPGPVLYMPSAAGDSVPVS
# Setting: RNA with constant flanks, vertebrate orthologous sites, ends assumed
# All sequences stand within: GGGAGUUCUACAGUCCGACGAUC … CAACAGAGGAUUGAGCAUCA
Sequence,bound/input enrichment [ratio]
GUUUAGAAUCUUAAUAAAUUGCUCCAAGAUUCCUGAAGUCAGUUCUGUAGGAUCAGACCAUAGGACAGUGGGGGGUGUGUGUGUGCGUAUAUAUACUGUUUCCAAAGUUACGUUUAAAGC,1.48
AUGUAGAGAAAAAUUUUCAUUGACCCCUCCCACCAUUGUGAAAUUCUCUAGCAAUUUAUUUAGAAUCUUAAUUUUUCUAAUACAAGCACACUGUCUUAGUCAUUUGUAGCCCGUGACUAA,1.82
UGUCUAGCUUCCAAACUUUGGCUGUUGGUAUUAGAGGCAGAUUUUCUUCUCGAGUCUCUCCUGCCUUGGAUGGGCCUCAAUAGGAGUGGACUGUGAAACUGCACCCAGCUUGUUCUCAUU,0.202
CUACUAUAAACAACUCAGGGCAGUAUUCUCGCUAUCCUUACAGUAACCUAAAUCAGGGAUUAGUUAACAAUACAGGGAUGAAUCAGAAUCUAGGCCUUACAAAUAAUACUCCAAUGAACC,1.05
CCCACUACUCCUGGGUGCGUGACUGCCAGGGAAGCAUCCACCAGUGCUGCAAGGGGUGCAGAGUGUUUUUUUUGCUGCCUCAGUCCCCAAUGCCUUCAAGCAGAAGUGGCAGUAGAUUGU,0.23
UGGUUUUUAAAAAUUUAUUGAGCGUAGCUUUGUGCUAAAGCUUAUGUAGACUUAAAAAAAUUCAUGGAUUGGUUCUUUGUUGUGUUGUUCUCAUUGAAAAUAAAAAGAACUUUGAAUCUC,0.222
UCCUCAACUUGUUCUAGCUUGUGAUCCCUCAAAGUUGGGUCAUACGUUAGUGCUAGAUACUAGAAAUUUUCACUUUUCCACUGAUCAGAGAGACAGACAUUAAAAACAAAAAUAGAAGAA,3.35
AAAUUUAUUUCAUGCCCUGGACUCCCUAUCGUACCGAUACUUUAAUAGAAUAUGCUUCUAUAGAAGAUUUCCAAAACAGUCGCCAGACAACAACAUACAAACUUCCAAAUCGAGUAGAUG,0.96

# For quick reference, copied from above (sample 3):
Sequence,log2 enrichment
AAGUCCUGUGCUACACAUCGUAUGUACCGAAUCGGGGUUUGGGGUUUGGGGAGGGGAAAGUAUUAUGUUACGCCGUUCGGAUCUGCACUU,1.39
CAAGUCCUGUGCUACACAUCGUAUGUACCGAAUCGGAAAGGGAAAGGGAAAGGGGAAAGUAUUAUGUUACGCCGUUCGGAUCUGCACUUC,-0.0954
UUGUCUUCUGAGAUGUUGGGCCCCUCUUGGGAUGGAGAUGAAGCAGAAUCCACUGGUGAAAUCAUUAGACUUGGAGACACAGCACACACC,-0.0626
UCCUCAAGUCCUGUGCUACACAUCGUAUGUACCGAAUCGGGCGGGGCGGCGGAAAGUAUUAUGUUACGCCGUUCGGAUCUGCACUUCCAG,-0.147
GAAAUUAUGGAAGUGGAAAUUACAAUGAUUUUGGAAAUUAUAACCAGCAACCUUCUAACUACGGUCCAAUGAAGAGUGGAAACUUUGGUG,-0.155
AAGUCCUGUGCUACACAUCGUAUGUACCGAAUCGGGAAAAAGGGUUUGGGUUUGGGAAAGUAUUAUGUUACGCCGUUCGGAUCUGCACUU,0.519
CUCAAGUCCUGUGCUACACAUCGUAUGUACCGAAUCGGAAAAAGGUUUGGUGGAAAGUAUUAUGUUACGCCGUUCGGAUCUGCACUUCCA,-0.269
AAGUCCUGUGCUACACAUCGUAUGUACCGAAUCGGUUUUUGGAAAAAGGAAAAAGGAAAGUAUUAUGUUACGCCGUUCGGAUCUGCACUU,-0.153
